Published values gathered from unrelated publications.
Numbers after ± are the reported error.

| SMILES | cell line | assay | test system | conditions | how to read | measurement | result |
| --- | --- | --- | --- | --- | --- | --- | --- |
| CC(=Nc1ccc(N=Cc2cnccn2)cc1)N(C)C | FHs 74 Int | MTT |  | 600 µM, 48 h |  | viability | 52.7 ± 2.1% |
| Cc1nc(NCCNc2ccnc3cc(Cl)ccc23)nc(-c2ccccc2[N+](=O)[O-])c1C(=O)OC(C)C | HEL | cell morphology |  |  |  | minimum cytotoxic concentration | 100 µM |
| O=C(/C=C\n1cnc(-c2cc(C(F)(F)F)cc(C(F)(F)F)c2)n1)NNc1ccccn1 | primary human fibroblasts uninfected | live/dead staining |  | 48 h |  | CC50 | > 60 µM |
| CCOc1cc(CC(=O)N[C@@H](CC(C)C)c2ccccc2N2CCCCC2)ccc1C(=O)O | MDCK low-efflux cells | passive permeability |  | apical to basolateral |  | Papp | 27.8 ×10⁻⁶ cm/s |
| O=P1(C2CCCCC2)CCCCC1 | HCT-116 | trypan blue |  | IC50, 72 h |  | viability | 90.7% |
| O=C(Nc1ccc(Cl)c(Br)c1)c1ccc2c(c1)C(=O)NC2=O | BV-2 | MTT |  | 1 to 20 µM, 24 h |  | viability | not toxic |
| C/C(O)=C(\C#N)C(=O)Nc1ccc(C(F)(F)F)cc1 | EL4 |  | culture medium | 0.4 µM, 48 h |  | free drug concentration | 100 nM |
| COc1ccc(Cn2cc(CO[C@@H]3O[C@H]4[C@H](OC[C@H]4O)[C@H]3O)nn2)cc1 | SU-DHL10 | cytotoxicity, CellTiter-Glo |  | up to 30 µM, 72 h |  | viability | not toxic |
| CC(=O)[C@]1(O)Cc2c(O)c3c(c(O)c2[C@@H](O[C@H]2C[C@H](N)[C@H](O)[C@H](C)O2)C1)C(=O)c1ccccc1C3=O | THP-1 PMA-differentiated macrophages | CellTiter-Glo |  | 72 h, host cell cytotoxicity |  | CC50 | 0.59 µM |
| Cc1cc(Nc2ccc(S(F)(F)(F)(F)F)cc2)n2nc(C(C)(F)F)nc2n1 | EL4 |  | culture medium | 20 µM, 48 h |  | free drug concentration | 2400 nM |
| Nc1ccn([C@H]2CC[C@@H](CO)O2)c(=O)n1 | HEL |  |  |  |  | minimum cytotoxic concentration | > 250 µM |
| COc1cccc(-c2n[nH]c(SCc3ccccn3)n2)c1OC | CHO-WBL |  |  | 200 µg/mL, 3 h, without S9 |  | micronuclei per binucleated cell | 0.015 |
| C=C(C)[C@@H]1CC[C@]2(C)CC[C@]3(C)[C@H](CC[C@@H]4[C@@]5(C)CC[C@H](O)C(C)(C)[C@@H]5CC[C@]43C)[C@@H]12 | RPE cells | cytotoxicity |  | 48 h |  | IC50 | > 100 µg/mL |
| C[C@H]1C[C@@H](N2C(=N)N[C@](C)(c3cccc(NC(=O)c4cccc(C#N)c4)c3Cl)CC2=O)CCO1 | human liver microtissue | hepatotoxicity |  |  |  | IC50 | > 50 µM |
| Nc1ncnc2c1ncn2C1CCCC1 | HCT-116 | CellTiter-Glo |  | up to 100 µM, 8 days | baseline: vehicle | viability | > 80% |
| Nc1ccn([C@@H]2O[C@H](CO)[C@@H](O)C2(F)F)c(=O)n1 | primary human fibroblasts uninfected | live/dead staining |  | 48 h, capped at 10.00 µM |  | CC50 | > 10 µM |
| CCCCCCCC[N+](CCCCCCCC)(CCCCCCCC)CCCCCCCC.[Br-] | hTERT-RPTEC-OAT1 | LDH release | culture medium | concentration not given, 24 h, 96-well plate |  | LDH activity in medium | 31.2 mU/mL |
| Cc1cccc(C)c1N(CC(=O)Nc1ccc(-c2ncon2)cc1)C(=O)C1CCS(=O)(=O)CC1 | primary human keratinocytes |  |  | 20 h |  | CC50 | > 10 µM |
| CCCC1C(=O)N2C(N(C)C)=Nc3ccc(C)cc3N2C1=O (centres unmarked) | MDCK low-efflux cells | passive permeability |  | apical to basolateral |  | Papp | 2 ×10⁻⁶ cm/s |
| COc1ccccc1OCC(O)CN1CCN(CC(=O)Nc2c(C)cccc2C)CC1 (centres unmarked) | hiPSC-derived cardiomyocytes |  |  | 50 µM, coupled and decoupled |  | spike slope | decreased |
| Cc1cc(C(=O)NC(C)(C)COc2cccc3c2C(N)=NS(=O)(=O)N3)cc(C)n1 | human peripheral blood lymphocytes | CBPI, preliminary test |  | 20 µg/mL, 24 h | baseline: vehicle control | cytotoxicity | 0% |

| SMILES | cell line | assay | test system | conditions | how to read | measurement | result |
| --- | --- | --- | --- | --- | --- | --- | --- |
| Cc1nc(C(=O)NCC(=O)O)c(O)c2ccc(Oc3ccccc3)cc12 | MDCK low-efflux cells | passive permeability |  | apical to basolateral |  | Papp | 16 ×10⁻⁶ cm/s |
| CC(CCC(=O)NCC(=O)O)C1CCC2C3C(O)CC4CC(O)CCC4(C)C3CCC12C (centres unmarked) | human hepatocytes in suspension | refers to: cholic acid, CDCA |  | 100 µM, 1 h |  | bile salt transported fraction | > 90% |
| CN1C(C(=O)Nc2nccs2)=C(O)c2ccccc2S1(=O)=O | MDCK low-efflux cells | passive permeability |  | apical to basolateral |  | Papp | 29.5 ×10⁻⁶ cm/s |
| CCOC(=O)c1c(C)nc(NCCCCNc2ccnc3cc(Cl)ccc23)nc1-c1ccccc1 | HEL | cell morphology |  |  |  | minimum cytotoxic concentration | 20 µM |
| Cc1nc(N(C)C(=O)Cc2ccc(-c3ccccn3)cc2)sc1S(N)(=O)=O | primary human keratinocytes |  |  | 20 h |  | CC50 | > 10 µM |
| Nc1ccn(C[C@@H](CO)OCP(=O)(O)O)c(=O)n1.O.O | HEL |  |  |  |  | minimum cytotoxic concentration | > 250 µM |
| Nc1ccn(C[C@@H](CO)OCP(=O)(O)O)c(=O)n1.O.O | HEL | cell morphology |  |  |  | minimum cytotoxic concentration | 317 µM |
| C[n+]1cc2c3c(ccc2c2ccc4cc5c(cc4c21)OCO5)OCO3 | THP-1 PMA-differentiated macrophages | CellTiter-Glo |  | 72 h, host cell cytotoxicity |  | CC50 | 4.34 µM |
| Nc1nc2c(ncn2COCCO)c(=O)[nH]1 | HEL | cell morphology |  |  |  | minimum cytotoxic concentration | > 1780 µM |
| Cc1cn([C@H]2C[C@H](N=[N+]=[N-])[C@@H](CO)O2)c(=O)[nH]c1=O | Cells, MOLT-4 and HUVEC |  | RPMI-1640, 10% FBS | concentration not given, constant extracellular exposure |  | time to intracellular steady state | ~10 h |
| CCn1cc(C(=O)O)c(=O)c2ccc(C)nc21 | MDCK low-efflux cells | passive permeability |  | apical to basolateral |  | Papp | 46 ×10⁻⁶ cm/s |
| CC1(C)CCC(c2ccc(Cl)cc2)=C(CN2CCN(c3ccc(C(=O)NS(=O)(=O)c4ccc(N[C@H](CCN5CCOCC5)CSc5ccccc5)c(S(=O)(=O)C(F)(F)F)c4)cc3)CC2)C1 | C2BBe1 monolayers |  |  | 50 % saturated solubility, 2 h, basolateral fractions 1-10, together with: taurocholate/phosphatidylcholine micelles |  | drug secreted with TRL | 2.6 ± 1.9% |
| O=C(Nc1ccc([N+](=O)[O-])cc1Cl)c1cc(Cl)ccc1O | primary human fibroblasts uninfected | live/dead staining |  | 48 h |  | CC50 | 19.5 µM |
| Cn1cc(-c2ccc(-c3cncc(Cl)c3N3CCC4(CCNC4=O)CC3)cc2)cn1 | COLO 205 | gene expression, microarray, refers to: SKP2 mRNA |  | concentration not given, 6 h | baseline: untreated cells | log2 fold change | -2.05 |
| C[C@H](NC(=O)[C@]1(Cc2ccccc2)CCN1C(=O)OCc1ccccc1)C(=O)NC(C)(C)C | HEL | cell morphology |  |  |  | minimum cytotoxic concentration | > 100 µM |
| Cc1ccc2ccc(C#N)c(O)c2n1 | RRCK low-efflux MDCK-II cells |  |  | 1.5 h, 37 °C, apical to basal |  | Papp | 2.91 ×10⁻⁶ cm/s |
| O[C@H]1[C@H](OCc2cn(Cc3ccc(F)cc3)nn2)O[C@H]2[C@@H]1OC[C@H]2O | HCT-116 | cytotoxicity, CellTiter-Glo |  | up to 30 µM, 72 h |  | viability | not toxic |
| CN1C(C(=O)Nc2ccccn2)=C(O)c2ccccc2S1(=O)=O | MDCK low-efflux cells | passive permeability |  | apical to basolateral |  | Papp | 25 ×10⁻⁶ cm/s |
| Nc1nc(O)c2ncn(COC(CO)CO)c2n1 | HEL |  |  |  |  | minimum cytotoxic concentration | > 100 µM |
| CC1=CC[C@H]2[C@@H]([C@@H]1CC[C@H]1[C@]3(C)CC[C@H](O)C(C)(C)O[C@H]3CC[C@]1(C)O)C(C)(C)CC[C@]2(C)O | HEK293 empty vector | cell viability, MTT |  | 72 h |  | IC50 | > 50 µM |

Some of these lines once more:
| SMILES | cell line | assay | test system | conditions | how to read | measurement | result |
| --- | --- | --- | --- | --- | --- | --- | --- |
| Cn1cc(-c2ccc(-c3cncc(Cl)c3N3CCC4(CCNC4=O)CC3)cc2)cn1 | COLO 205 | gene expression, microarray, refers to: SKP2 mRNA |  | concentration not given, 6 h | baseline: untreated cells | log2 fold change | -2.05 |
| Nc1ccn(C[C@@H](CO)OCP(=O)(O)O)c(=O)n1.O.O | HEL | cell morphology |  |  |  | minimum cytotoxic concentration | 317 µM |
| Nc1nc(O)c2ncn(COC(CO)CO)c2n1 | HEL |  |  |  |  | minimum cytotoxic concentration | > 100 µM |
